Measurements of several laboratories.
Parts stem from different laboratories: compare values within a part only.

Sample 1 — technique: competition protein-binding microarray; molecule type: double-stranded DNA, one strand shown; matrix: in vitro; tested at: 2 µM; together with: Pho4 competitor, 0.05 µM; reading: higher = stronger binding; constant ends, left off below: … GTCTTGATTCGCTTGACGCTGCTG
Target: Centromere-binding protein 1, full length, His-tagged (CBF1, Saccharomyces cerevisiae, UniProt P17106, residues 1-351)
Chain of UniProt P17106 (whole entry, looked up): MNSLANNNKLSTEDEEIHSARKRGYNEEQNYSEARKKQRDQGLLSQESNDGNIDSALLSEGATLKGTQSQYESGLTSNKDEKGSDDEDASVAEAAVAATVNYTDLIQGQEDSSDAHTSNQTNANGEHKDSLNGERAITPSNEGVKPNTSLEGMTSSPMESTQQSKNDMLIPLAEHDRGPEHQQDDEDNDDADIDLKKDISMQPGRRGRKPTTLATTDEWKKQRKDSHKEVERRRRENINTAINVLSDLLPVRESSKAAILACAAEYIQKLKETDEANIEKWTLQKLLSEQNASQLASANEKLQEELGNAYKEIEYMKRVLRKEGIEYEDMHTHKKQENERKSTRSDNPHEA
Notes: whole 60-bp probe, lowest competitor level
Oligonucleotide	fluorescence intensity [a.u.]
TTTAACCTCTAGTAAGAAGGACCCGGCACTTATTGT	51.7
CATACCCAACCTTGTAAGGTGGGTGAAGATATTTGT	73.1
GTCTTGTCTCATTGCCTAGTGGGTGTCCCCACTTCA	90.4
GGTAAGAAGGTCGCTAGCATGACGCCAGCTCCAAAA	58.1
CATACCCAACCTTGGCACGTGTTTTAAGATATTTGT	2540
ATTTCGCAAGGAGCGGGCGTGCGATGTTAACGTCAA	63.7
AAAGGCCACAAGTTGCGCATGCCTTTTTGCAATGTT	70.1
AATGTGGGAATGTCGCACACGCTAATGTGGAATTGG	84.6
AAACTTTGGCCTTAGCCCGTGGGTATGTTACCATTG	67.2
CATACCCAACCTTTTCACGTGTACTAAGATATTTGT	1150
GACAGAAAAATTTGTCACGTGACGGGAAAAGTTACG	24200
ACTCGCATGTTACCGTCCGTGACGGACTCCTTTGTG	75.2
GTCTTGTCTCATTGTCAGGTGGGTGTCCCCACTTCA	130
TTAATTAGCTTCTTGCATGTGCTCTTTAGCTTCGGC	128
GAAAAGCTTATTTTTTTCGTGCAAACTCCGTTCTTA	73
AAATTACTAAGTTGTCACACCACTTACCCCGTATGA	154
GTCTATCTTGACCAGCGCGTGGTCGGCCGCCAATGC	75.3
CCTCATGGAGATGAGCACATGCTACAACTAATAACG	315
AACTAAGAGAAATTGAACGTGGTCGCGATCTTTTAG	90.4
TTGTTTCATCCAGGGTACGTGGCCGCACTTGTCAAT	58.2
TACTTACCCTACCACCACATGCCGTATCCACCCTCA	50.3
AAATTACTAAGTTGTCACTCAACTTACCCCGTATGA	68.5
CCATGGACAATTTCACACGTGAAAATTGGTTACCAT	616
CTACCACTCTGGAACGCCGTGACGGGCTCAGCCCCG	49.5
CGTCCTAGCGATTGATTAGTGGGTGCCATGAGGAAG	73.3

Sample 2 — technique: universal PBM; molecule type: double-stranded DNA, one strand shown; matrix: in vitro; tested at: not given; reading: higher = stronger binding
Target: Sal-like protein 4, full length isoform B (SALL4, Homo sapiens, UniProt Q9UJQ4-2, residues 1-616)
Notes: 8-mer, flanks averaged, mean of replicates
Target sequence (chain): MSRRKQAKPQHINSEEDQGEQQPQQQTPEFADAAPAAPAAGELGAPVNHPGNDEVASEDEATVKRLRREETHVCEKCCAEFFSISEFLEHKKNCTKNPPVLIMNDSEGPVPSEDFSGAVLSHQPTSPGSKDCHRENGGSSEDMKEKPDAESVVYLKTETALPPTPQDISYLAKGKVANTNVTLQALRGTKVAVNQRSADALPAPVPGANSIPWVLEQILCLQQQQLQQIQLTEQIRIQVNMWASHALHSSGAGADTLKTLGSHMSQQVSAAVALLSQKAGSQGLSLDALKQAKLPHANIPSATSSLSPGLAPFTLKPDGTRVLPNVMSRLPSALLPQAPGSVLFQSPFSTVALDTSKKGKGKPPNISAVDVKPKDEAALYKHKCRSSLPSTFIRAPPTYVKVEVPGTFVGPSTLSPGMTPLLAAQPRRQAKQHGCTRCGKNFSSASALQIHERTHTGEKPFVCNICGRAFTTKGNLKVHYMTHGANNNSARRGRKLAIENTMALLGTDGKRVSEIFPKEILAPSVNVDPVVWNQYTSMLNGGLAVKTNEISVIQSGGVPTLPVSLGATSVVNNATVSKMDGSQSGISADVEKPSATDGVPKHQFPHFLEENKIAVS
Oligonucleotide	E-score
CGTCCCTC	-0.242
AAGTGCCC	-0.191
CCGCAGGC	-0.283
CGACGATC	-0.054
AGAAGGCG	-0.194
AGCCCCTC	-0.172
ACTGTTGA	0.0687
CCAATGTA	0.031
AACGGTAC	-0.0162
TGAAAAAA	0.355
ACAGAGAC	0.0314
ATGCACGG	-0.255
ATCCACTC	-0.0263
CACGGGAA	-0.259
CCGTACTA	0.0569
CGAAGAAC	-0.0387
AGGAGTGC	-0.179
GGCCCCGA	-0.328
CTATGCGA	-0.14
ATGCCGTA	0.00567
CAGCATGC	-0.105
AACCCGAC	-0.098
AGAGGCAG	-0.209

Sample 3 — technique: RNA Bind-n-Seq; molecule type: RNA; matrix: in vitro; tested at: 200 nM; notes: whole 134-nt RNA, ends assumed; together with: 150 mM KCl; relative to: input library; reading: higher = stronger binding
Target: Fragile X messenger ribonucleoprotein 1, C-terminal low-complexity region (Fmr1, Mus musculus, UniProt P35922)
Constant ends, left off below: GGGAGUUCUACAGUCCGACGAUC … UGGAAUUCUCGGGUGUCAAGG
Oligonucleotide	log2 enrichment
UGGGAGGUGGAUUUUGUGUAUUUUUUUAGCUCAUUUCCAGGGGUGGGAAUUUUUUUUUAAUAUGUGUCAUGAAUAAAGUUGUUUUUGAAA	0.352
UGGCCCUGGUGGCAUGCGGGGAGGAAGAGGUGGCCUCAUGGAUCGUGGUGGUCCCGGUGGAAUGUUCAGAGGUGGCCGUGGUGGUGACAG	0.13
AAGUCCUGUGCUACACAUCGUAUGUACCGAAUCGGGGAAAAGGGAAAAGGAAAAGGGAAAGUAUUAUGUUACGCCGUUCGGAUCUGCACU	-0.116
CACAGACAACACGCACCCACACAGACACAGAGGGAAGGGGUUGAAAUGGGGACAGGGUGCACAGCAGGGCGGGGUAGGACCCCAGCCCCU	0.641
UCAAGUCCUGUGCUACACAUCGUAUGUACCGAAUCGGCCCGGGGCCCGGCCCGGGAAAGUAUUAUGUUACGCCGUUCGGAUCUGCACUUC	-0.524
ACCAUGCAGGUGGGCAUCUUUGGGAAGUGGGGCAUGGGGGGGAUAGGGAGGGGGGUAACACUUUGGGAACAGGUGGUCCCAGGUCGUUUC	0.876
AAGUCCUGUGCUACACAUCGUAUGUACCGAAUCGGCCCGGGGCCCGGGGCCCGGGGAAAGUAUUAUGUUACGCCGUUCGGAUCUGCACUU	-0.667
UGGGAGGUGGAUUUUGUUUAUUUUUUUAGCACAUUUCCAGGGGUGGGAAUUUUUUUUUAAUAUGUGUCAUGAAUAAAGUUGUUUUUGAAA	0.339
ACCAUGCAGGUGGGCAUCUUUGGGAAGUGGGGCAAGGGGGGGAUAGGGAGGGGGGUAACACUUUGGGAACAGGUGGUCCUAGGUCGUUUC	0.634
UGGGAGGUGGAUUUUGUUUAUUUUUUUAGCUCAUUUCCAGGGGUGGGAAUUUUUUUUUAAUAUGUGUCCUGAAUAAAGUUGUUUUUGAAA	0.241
UAACUUUAGAGGAGGAUCUGAUGGAUAUGGCAGUGGACGUGGAUUUGGGGAUGGCUAUAAUGGGUAUGGAGGAGGAACUGGAGGUGGCAA	0.32
CACAGACAACACGCACCCACACAGACACAGAGGGAAGGAAAUGGGAUGGGGACAGGGUGCACAGCAGGGCGGGGUAGGACCCCAGCCCCU	1.31
CCUGUGCUACACAUCGUAUGUACCGAAUCGGGGUUUUUUGGUUUUUUGGGUUUUUUGGGGAAAGUAUUAUGUUACGCCGUUCGGAUCUGC	-0.525
CGGCAGUAGCAGCAGCGCCGGGUCCCGUGCGGAGGUGCUCCUCGCAGAGUUGUUUCUCGAGCAGCGGCAGUUCUCACUACAGCGCCAGGA	-0.504

Sample 4 — technique: RNA Bind-n-Seq; molecule type: RNA; matrix: in vitro; tested at: 365 nM; relative to: no-protein control; reading: higher = stronger binding
Target: RNA binding protein fox-1 homolog 2, RRM domain, GST-SBP tag (RBFOX2, Homo sapiens, UniProt O43251-10, residues 100-194)
Notes: natural RNA segment, single round, ends assumed
Constant ends, left off below: GGGAGUUCUACAGUCCGACGAUC … UGGAAUUCUCGGGUGCCAA
Construct (chain): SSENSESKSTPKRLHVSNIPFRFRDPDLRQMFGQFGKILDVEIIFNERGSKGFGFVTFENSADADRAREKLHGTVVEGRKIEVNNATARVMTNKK
Oligonucleotide	RBNS enrichment (R)
CCAAUCAAACCUACUUUUUCCAUACUCUGUGCAUAUUUUUUGUGAAGUUAUACACAUUGAAGACCCUAAAAAUCCCAGUCCAUCAUUCAGCUUACCUCUGCGAACUUCUA	1.17
AAGAUCAGGGGCAAGACAACUCAGCACACCUGGAACCCUUGGGGUCUUUAAGCAGCCGUGUCCAGGCUUCCUGAGAACACCGGCUGCAAACACGGGCAUCCCGGGGAAAG	0.776
CAACCCUCUUCUGCCUCUGCCGGUUGUGGAACAAAUGACUAUCCUGAACAGGGUGGAGGGGUGUGGGAAAGAAACCAGCCAUAUUGGUUUUGGUUUCUGUAUUUUUCACA	0.295
AGCACUGUUAGACACACACAGACCUGCAGGCUGUUUUAGAAUGUUUUGAUCUCUUUGGGGAAUCUGGAGUACAGGCCUCUCCGCCCCUGACCACCGAAACGUGCAGGCAU	0.685
AGUAGUUCUAUUGGGCACUAUAGUCAGUUGGGAGUGGUUGCUAUACCUUGACUUCAUUUAUAUGAAUUUCCACUUUAUUAAAUAAUAGAAAAGAAAAUCCCGGUGCUUGC	1.11
UUGCACCAAAGAGAUAUGGAGACAUAAACCUGUAAUGAAUGAGGCUGGGCUUUUCUGUAAUAAGCUUCCUUUUAUAAUACUGGUCAGCUUAGCUCUCUCAGAUCCUAUCC	0.352
UAAAUCUGGCCCUUGGAACUACAACCCAGAGGAAGUUCGUGCUGUUCUGGAAAAGCUCCACAGUUAAUCUGGACAGAUACCUCAAUUCUAGGUGACCAACGGGAGGGCUU	0.264
AAGGUCACACCAUGAUGGAGAACACAGGUCAUUUGGGUACGUGUAAUCAAAGUGCCCUCCCAAAUCAGUUCUCCUUUUCGUAUGAACAGCAUCUCUACUUUUAAAGAGGA	0.368
UCCAAUGAAAUGUUAUAGGUGUGUGAAAGCAGAUUAAAGAAAGAGGUUCCCAUAUCAUUCUUUCUAAACAAAGCCUGUGAUUUAUGCAGAGUGUCUCUAGCUCUGAAGUU	0.467
GCCCUUCCCACCUGGACAGUGGUGUGUGUAGAAAGCCAGCUGGAUGUUUGUGGUGGGGCCUCAUGGUGCCUAGGAGGAGAUAAAGAUGAGGAGGUUUUUCCUUAUUGUAU	0.771
UAUGUUGCUUUGUAAUUAUUUUCUAGCACUCUGUGUUACAGUUUCAUAUUUGUAUUUAUUUCCAAAAUUAAAUUGUAAGCUCCUUGAGGGCAGGAAUAAUAACUUUUACA	0.4
CACUACACAUAAAUCUCAUAAUCUUUUUGUCUUUGGAGAUUCCAUUGUGGACAGUAAUACGCAGUUACAGGGUGUAGUCUGUUUAGAAUCCGUAGUUUGUGGGUAUCAGU	0.531

Excerpt of the above (sample 1):
Oligonucleotide	fluorescence intensity [a.u.]
TACTTACCCTACCACCACATGCCGTATCCACCCTCA	50.3
AAATTACTAAGTTGTCACACCACTTACCCCGTATGA	154
AACTAAGAGAAATTGAACGTGGTCGCGATCTTTTAG	90.4
CCATGGACAATTTCACACGTGAAAATTGGTTACCAT	616
ACTCGCATGTTACCGTCCGTGACGGACTCCTTTGTG	75.2
TTAATTAGCTTCTTGCATGTGCTCTTTAGCTTCGGC	128
GAAAAGCTTATTTTTTTCGTGCAAACTCCGTTCTTA	73
ATTTCGCAAGGAGCGGGCGTGCGATGTTAACGTCAA	63.7
GTCTATCTTGACCAGCGCGTGGTCGGCCGCCAATGC	75.3
